Experimental data of several laboratories.
Numbered parts are unrelated; each lists some results of a single study.

Set 1
Target: RNA binding protein fox-1 homolog 2, RRM domain, GST-SBP tag (RBFOX2, Homo sapiens, UniProt O43251-10, residues 100-194)
Technique: RNA Bind-n-Seq
Form: RNA
Medium: in vitro
Concentration: 365 nM
Setting: natural RNA segment, single round, ends assumed
Baseline: no-protein control
Reading: higher = stronger binding
Shared flanks, not repeated: GGGAGUUCUACAGUCCGACGAUC … UGGAAUUCUCGGGUGCCAA
`GGCGCUAUUAGGAAGCGUGGCCUUUUUGGACUAGGUGUGUCACUGUGGCUGUGGGGUAUAGCACCCUCACCCUAGCUGCCUGGAAGCCAGUAUCCUGCGAGCAGCCUUCA` — result for “RBNS enrichment (R)”: 0.447.
For `CUGGCGAGGUGGUAUUAGCCCAUCUUACAGAUGGGAAAACUGAAGUUCUGUGCUAGAGAUUGAGAACAAUGUAAAGACUUGAGGCUUAGGUAGUGCUCUAUCUGGUCAGG`, “RBNS enrichment (R)” read 0.375.
Under “RBNS enrichment (R)”, `AGGAGAUACUAGAGGCUCAGACAGCAGGCAUGUAUCCCCAUGGGGAAUAUGUGAGGACCUGGACCGCUGGCUGCCUCAGCUGUACCUGGUUUUAAAUGCAGCUUUCUGUA` is recorded as 0.587.
`AAGGUGAGAUAUAAAUGUAUAUAGACAUGUAGCUGAGGAUAUUAAUUUCAGUCUUAAAGUGUGACUUGUAAGGAGCCAAGCUGUACAGUUUAGUUCAUGAUGGCAGCUCU` — result for “RBNS enrichment (R)”: 0.711.
`UAUAACAUAUUUAUAAAUGUUACUCAGGUUAAAAGUAUUUAAGAAUACAGUUAACUAAUUGUAAAUAUGCUGUUAACCAAAAGAGCUUUCCCUCCCUCACUUUUUCCUUU`: “RBNS enrichment (R)” 0.386.
`AAUCCCAGGAACCACUAGCAGUAGUGGGGCGCCACCAAUGUAACAUGAGCACAGGUGCCUCAUGGCAAACAUGGCUGGCAUGUUCAACUGCAUAAUGCUCUGGCACUGUA` — result for “RBNS enrichment (R)”: 0.435.
`CAAGUGGACCCCUUCAAAAGGCUACCGCUUAGCUCCGAACAAAAGGAUCAGUCGUGGGCAGGACUCACAUACCUCAGCUCUGGAGGAGCUAGCACUGUCUGGAAUGGCCU`: “RBNS enrichment (R)” 0.37.
`CUCCCAGCUGCCCUCCUGCUUCGGGCCUGGGCCGAGGGCCUUGUGUAGGCCAUGUUCCUCGGGCAGCUGCCCCGGGCCGGAGCUGGGCACUCCAGCGGCCCUGGCGCGUG`: “RBNS enrichment (R)” 0.415.

Set 2
Target: Interferon regulatory factor 7, full length, phosphomimetic (IRF7, Homo sapiens, UniProt Q92985, residues 1-503, S101K/S471D/S472D/S475D/S476D/S477D/S483D/S484D/S487D)
Technique: protein-binding microarray
Form: double-stranded DNA, one strand shown
Medium: in vitro
Concentration: 250 nM
Setting: 60-bp whole probe
Added: salmon DNA 0.4 mg/ml
Baseline: random background probes
Reading: higher = stronger binding
Shared flanks, not repeated: GCCTAGCAC … GTCTTGATTCGCTTGACGCTGCTG
Residues (chain): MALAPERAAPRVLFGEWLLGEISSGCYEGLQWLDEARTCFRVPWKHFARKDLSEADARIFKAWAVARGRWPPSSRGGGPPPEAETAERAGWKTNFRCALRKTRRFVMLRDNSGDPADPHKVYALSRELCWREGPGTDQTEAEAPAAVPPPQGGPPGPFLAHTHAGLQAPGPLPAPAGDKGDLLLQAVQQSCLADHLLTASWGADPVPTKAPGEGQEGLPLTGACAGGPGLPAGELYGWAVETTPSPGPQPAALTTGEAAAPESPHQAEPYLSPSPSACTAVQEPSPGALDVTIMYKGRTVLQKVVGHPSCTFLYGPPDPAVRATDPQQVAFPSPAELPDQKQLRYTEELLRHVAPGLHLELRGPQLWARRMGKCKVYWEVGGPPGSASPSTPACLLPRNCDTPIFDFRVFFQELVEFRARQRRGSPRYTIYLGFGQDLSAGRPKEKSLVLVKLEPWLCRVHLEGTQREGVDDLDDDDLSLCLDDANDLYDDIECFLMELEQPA
For `TCATATACACTTATGACACTGTGCTAG`, the log fluorescence was 0.54 z-score.
`GACGGACGGCTTATCCTGACGTGCTAG` has a log fluorescence of -1.02 z-score.
`GACGTTTTCGGGACTGGAGACGTGCTA` gave a log fluorescence of 0.83 z-score.
With `GACGGCCTGGGTTTCGGGACGTGCTAG` the log fluorescence was 1.43 z-score.
`GACGCTCTCGGTTTCGGGACGTGCTAG` gave a log fluorescence of 4.12 z-score.
With `TCACTGCTCCTTCTGACACTGTGCTAG` the log fluorescence was -0.208 z-score.
For `TTAGGTTTCGGGTTTCGGTAAGTGCTA`, the log fluorescence was 11.9 z-score.
`TGAGATCTCAGTCTCGATTAGTGCTAG` has a log fluorescence of 1.48 z-score.

Set 3
Target: Replicase polyprotein 1ab, nsp13 helicase (rep, Severe acute respiratory syndrome coronavirus 2, UniProt P0DTD1)
Mode: inhibitor
Concentration: 20 µM
`COc1cn(-c2ccc(-n3cccn3)cc2F)nc(-c2ccnn2-c2ccccc2)c1=O` gave an inhibition of 6.65%.
With `NC(=O)N/N=C/c1ccc([N+](=O)[O-])o1` the inhibition was 1.69%.
`Oc1cc(O)cc(O)c1` gave an inhibition of 5.56%.
`CC(=O)N1N=C(c2ccc(N)cc2)c2cc3c(cc2C[C@H]1C)OCO3` has an inhibition of 13.3%.
`O=C(CCCCCCC(=O)Nc1ccccc1)NO` gave an inhibition of 6.19%.
`COc1ccc(-c2cc(=O)c3c(OC)c(OC)c(OC)c(OC)c3o2)cc1` gave an inhibition of 2.57%.
`N#Cc1ccc(C(c2ccc(C#N)cc2)n2cncn2)cc1` has an inhibition of -1.16%.
`CC(=O)Nc1ccc(S(=O)(=O)c2ccc(NC(C)=O)cc2)cc1` has an inhibition of 9.18%.
For `CC1=C[C@H](O)CC(C)(C)[C@H]1/C=C/C(C)=C/C=C/C(C)=C/C=C/C=C(C)/C=C/C=C(C)/C=C/C1=C(C)C[C@@H](O)CC1(C)C`, the inhibition was 6.06%.
The inhibition of `COc1cc2ncnc(Nc3ccc(Oc4ccccc4)cc3)c2cc1OC` is reported as 3.52%.
The inhibition of `C[C@@H]1CC[C@H]2[C@@H](C)C(=O)O[C@@H]3O[C@@]4(C)CC[C@@H]1[C@]32OO4` is reported as 0.44%.
The inhibition of `COc1cc2c(cc1-c1c(C)noc1C)ncc1[nH]c(=O)n([C@H](C)c3ccccn3)c12` is reported as 0.69%.
The inhibition of `CC(C)(O)C(Cl)(Cl)Cl` is reported as 1.9%.
`O=C(O)C(=O)CBr` has an inhibition of 40.2%.
With `CCOC(=O)C1=C(C)NC(C)=C(C(=O)OC)C1c1cccc([N+](=O)[O-])c1` (stereo not drawn) the inhibition was 7.68%.
For `CC(C)Nc1nc2cc(Cl)c(Cl)cc2n1[C@H]1O[C@@H](CO)[C@H](O)[C@@H]1O`, the inhibition was 2.02%.
The inhibition of `COc1cccc(-n2nc(C(=O)O)cc2-c2ccc(C3CCCCC3)c(Cl)c2)c1` is reported as 17.1%.
For `O=C(OCCOCCO)c1ccccc1Nc1cccc(C(F)(F)F)c1`, the inhibition was 1.46%.
With `CC1(C)CC(=O)c2c(C(F)(F)F)nn(-c3ccc(C(N)=O)c(N[C@H]4CC[C@H](OC(=O)CN)CC4)c3)c2C1` the inhibition was 7.7%.
`Cn1cc(C2=C(c3cn(C4CCN(Cc5ccccn5)CC4)c4ccccc34)C(=O)NC2=O)c2ccccc21` has an inhibition of 11.7%.
For `CN(C)CC[C@H](CSc1ccccc1)Nc1ccc(S(=O)(=O)NC(=O)c2ccc(N3CCN(Cc4ccccc4-c4ccc(Cl)cc4)CC3)cc2)cc1[N+](=O)[O-]`, the inhibition was 10.5%.
For `CCN(CC)CCOCCOC(=O)C(CC)(CC)c1ccccc1`, the inhibition was -0.29%.
`CC(=O)Nc1cccc(-n2c(=O)n(C3CC3)c(=O)c3c(Nc4ccc(I)cc4F)n(C)c(=O)c(C)c32)c1` gave an inhibition of 1.58%.
`CCCn1c(=O)c2[nH]c(-c3cnn(Cc4cccc(C(F)(F)F)c4)c3)nc2n(CC)c1=O` has an inhibition of -0.88%.
With `CCCCCCCCCCC(CO)CCCCCCCC` (stereo not drawn) the inhibition was 5.95%.

Set 4
Target: Sal-like protein 4, full length isoform A (SALL4, Homo sapiens, UniProt Q9UJQ4, residues 1-1053)
Chain of UniProt Q9UJQ4 (whole entry, looked up): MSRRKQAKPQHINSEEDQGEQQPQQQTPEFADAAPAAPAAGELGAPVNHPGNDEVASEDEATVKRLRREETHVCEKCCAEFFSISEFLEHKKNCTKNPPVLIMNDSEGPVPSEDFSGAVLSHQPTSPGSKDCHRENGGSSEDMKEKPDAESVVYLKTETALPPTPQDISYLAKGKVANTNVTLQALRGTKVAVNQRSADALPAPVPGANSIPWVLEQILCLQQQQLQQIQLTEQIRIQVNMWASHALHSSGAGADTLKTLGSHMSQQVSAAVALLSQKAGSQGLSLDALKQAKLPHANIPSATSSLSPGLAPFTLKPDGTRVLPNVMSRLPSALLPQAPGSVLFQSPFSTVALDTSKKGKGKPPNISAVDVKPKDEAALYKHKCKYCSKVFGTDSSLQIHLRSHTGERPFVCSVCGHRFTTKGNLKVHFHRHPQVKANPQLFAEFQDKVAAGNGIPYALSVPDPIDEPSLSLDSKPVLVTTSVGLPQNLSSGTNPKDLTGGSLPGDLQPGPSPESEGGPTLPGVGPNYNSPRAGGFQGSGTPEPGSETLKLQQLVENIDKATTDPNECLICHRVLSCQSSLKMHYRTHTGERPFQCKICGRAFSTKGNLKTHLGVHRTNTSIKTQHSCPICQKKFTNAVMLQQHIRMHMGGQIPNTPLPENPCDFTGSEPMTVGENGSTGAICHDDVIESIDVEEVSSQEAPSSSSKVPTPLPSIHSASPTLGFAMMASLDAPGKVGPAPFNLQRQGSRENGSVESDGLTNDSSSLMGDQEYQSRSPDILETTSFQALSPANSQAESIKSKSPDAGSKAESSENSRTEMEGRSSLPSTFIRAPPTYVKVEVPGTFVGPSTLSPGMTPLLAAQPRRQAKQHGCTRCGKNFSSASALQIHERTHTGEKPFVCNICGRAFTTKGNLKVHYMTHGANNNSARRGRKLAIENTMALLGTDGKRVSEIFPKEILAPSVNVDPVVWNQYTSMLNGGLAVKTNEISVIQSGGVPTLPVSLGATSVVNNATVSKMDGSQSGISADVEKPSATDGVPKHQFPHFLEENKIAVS
Technique: universal PBM
Form: double-stranded DNA, one strand shown
Medium: in vitro
Concentration: 600 nM
Setting: 8-mer, flanks averaged, mean of replicates
Reading: higher = stronger binding
`CACAGTGC` has an E-score of -0.295.
`CCGGTTGA` has an E-score of -0.259.
`CTAGTAAC` has an E-score of 0.0193.
With `AGTCCCTG` the E-score was -0.276.
The E-score of `CTGGCAAC` is reported as -0.199.
`CAGGAAAC` gave an E-score of -0.0095.
For `AAACCCAA`, the E-score was 0.181.
For `TGATTACA`, the E-score was 0.299.

Set 5
Target: Replicase polyprotein 1ab, main protease (rep, Severe acute respiratory syndrome coronavirus 2, UniProt P0DTD1)
Observed: enzyme activity
Mode: inhibitor
Concentration: 20 µM
Setting: primary screen
The inhibition of `CCOC(=O)C1=C(C)NC(=S)NC1c1cccc(O)c1` (stereo not drawn) is reported as 87.8%.
With `O=C1OC2(c3cc(I)c(O)c(I)c3Oc3c2cc(I)c(O)c3I)c2c(Cl)c(Cl)c(Cl)c(Cl)c21` the inhibition was 101%.
For `Oc1cc2c(cc1O)CN(C(=S)NCCc1ccc(Cl)cc1)CCC2`, the inhibition was 60.5%.
With `CC(=O)Oc1ccccc1C(=O)Nc1ncc([N+](=O)[O-])s1` the inhibition was 113%.

Set 6
Cell line: HEK-293T/ACE2
Observed: pseudovirus infection
Organism: VSV pseudotyped with SARS-CoV-2 spike
Concentration: 10 µM
Time: 16 h
Baseline: vehicle-treated
`CC(C)(C)NCC(O)c1cc(O)cc(O)c1` (stereo not drawn) gave a GFP-positive cells of 62.9%.
For `C#C[C@]1(O)CC[C@H]2[C@@H]3CCc4cc(OC)ccc4[C@H]3CC[C@@]21C`, the GFP-positive cells was 69.3%.
For `CN(C)CCn1nnnc1SCC1=C(C(=O)O)N2C(=O)[C@@H](NC(=O)Cc3csc(N)n3)[C@H]2SC1`, the GFP-positive cells was 75.1%.
The GFP-positive cells of `CC(C)c1ccc2oc3nc(N)c(C(=O)O)cc3c(=O)c2c1` is reported as 67.8%.
